Published values from different studies.
± marks the error that the study gave.
UniProt P06536, sequence (whole entry, looked up): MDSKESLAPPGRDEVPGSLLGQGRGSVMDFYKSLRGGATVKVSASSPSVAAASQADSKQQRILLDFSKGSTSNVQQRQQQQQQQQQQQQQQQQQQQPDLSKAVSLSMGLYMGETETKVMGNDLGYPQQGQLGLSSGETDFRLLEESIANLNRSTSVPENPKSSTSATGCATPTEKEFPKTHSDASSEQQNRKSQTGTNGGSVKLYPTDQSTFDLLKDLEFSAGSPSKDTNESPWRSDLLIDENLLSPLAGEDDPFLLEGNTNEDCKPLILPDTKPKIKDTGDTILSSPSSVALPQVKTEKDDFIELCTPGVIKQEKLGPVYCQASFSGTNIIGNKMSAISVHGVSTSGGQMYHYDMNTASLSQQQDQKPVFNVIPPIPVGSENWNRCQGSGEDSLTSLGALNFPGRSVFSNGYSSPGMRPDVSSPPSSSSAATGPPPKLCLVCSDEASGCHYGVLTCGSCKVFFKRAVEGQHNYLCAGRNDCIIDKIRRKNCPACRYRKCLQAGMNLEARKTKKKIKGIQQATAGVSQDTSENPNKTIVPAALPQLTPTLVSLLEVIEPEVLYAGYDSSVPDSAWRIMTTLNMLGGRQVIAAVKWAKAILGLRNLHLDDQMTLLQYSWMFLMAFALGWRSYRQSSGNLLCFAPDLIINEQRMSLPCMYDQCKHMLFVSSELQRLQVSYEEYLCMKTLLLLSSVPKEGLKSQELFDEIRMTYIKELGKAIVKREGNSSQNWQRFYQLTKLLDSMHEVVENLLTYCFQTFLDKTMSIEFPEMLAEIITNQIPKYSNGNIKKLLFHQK
UniProt P32239, sequence (whole entry, looked up): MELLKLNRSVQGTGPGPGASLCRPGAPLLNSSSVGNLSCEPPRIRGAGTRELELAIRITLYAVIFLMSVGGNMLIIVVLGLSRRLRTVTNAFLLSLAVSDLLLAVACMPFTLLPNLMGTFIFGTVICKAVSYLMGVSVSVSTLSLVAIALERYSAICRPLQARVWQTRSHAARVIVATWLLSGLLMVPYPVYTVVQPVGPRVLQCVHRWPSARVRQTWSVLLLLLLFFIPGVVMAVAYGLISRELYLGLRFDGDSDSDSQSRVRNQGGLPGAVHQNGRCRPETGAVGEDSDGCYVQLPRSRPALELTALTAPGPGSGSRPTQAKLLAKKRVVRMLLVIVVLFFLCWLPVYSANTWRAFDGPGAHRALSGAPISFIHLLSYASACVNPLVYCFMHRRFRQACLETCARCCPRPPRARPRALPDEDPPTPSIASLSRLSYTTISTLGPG
UniProt O75762, sequence (whole entry, looked up): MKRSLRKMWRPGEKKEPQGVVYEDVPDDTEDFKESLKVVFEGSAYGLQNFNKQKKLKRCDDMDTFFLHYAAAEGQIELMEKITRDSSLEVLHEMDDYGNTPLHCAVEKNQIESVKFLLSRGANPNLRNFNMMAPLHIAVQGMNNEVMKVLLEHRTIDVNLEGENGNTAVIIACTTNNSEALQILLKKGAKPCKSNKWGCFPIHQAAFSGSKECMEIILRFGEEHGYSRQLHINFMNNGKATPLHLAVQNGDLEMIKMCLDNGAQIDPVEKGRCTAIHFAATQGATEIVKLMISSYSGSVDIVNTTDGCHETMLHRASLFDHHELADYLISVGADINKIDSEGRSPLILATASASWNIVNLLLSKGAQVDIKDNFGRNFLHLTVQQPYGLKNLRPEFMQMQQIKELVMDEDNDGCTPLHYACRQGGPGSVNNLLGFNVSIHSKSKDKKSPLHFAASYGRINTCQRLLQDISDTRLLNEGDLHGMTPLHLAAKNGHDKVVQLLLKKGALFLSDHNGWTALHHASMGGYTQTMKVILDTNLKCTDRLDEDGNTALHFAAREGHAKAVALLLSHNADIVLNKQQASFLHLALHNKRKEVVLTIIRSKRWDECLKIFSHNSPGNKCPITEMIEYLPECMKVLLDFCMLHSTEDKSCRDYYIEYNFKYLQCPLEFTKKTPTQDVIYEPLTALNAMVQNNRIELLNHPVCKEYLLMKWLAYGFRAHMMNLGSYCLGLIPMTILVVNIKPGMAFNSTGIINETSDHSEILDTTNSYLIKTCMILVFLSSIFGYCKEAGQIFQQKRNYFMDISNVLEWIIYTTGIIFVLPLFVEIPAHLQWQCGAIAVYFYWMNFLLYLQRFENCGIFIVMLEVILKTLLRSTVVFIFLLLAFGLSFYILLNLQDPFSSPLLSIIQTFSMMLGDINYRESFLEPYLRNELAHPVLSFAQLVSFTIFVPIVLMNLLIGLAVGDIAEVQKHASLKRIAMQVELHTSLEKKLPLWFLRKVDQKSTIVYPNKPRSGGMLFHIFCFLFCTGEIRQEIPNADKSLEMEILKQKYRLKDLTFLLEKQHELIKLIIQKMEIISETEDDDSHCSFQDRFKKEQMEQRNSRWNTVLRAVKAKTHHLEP
UniProt O43918, sequence (whole entry, unmodified, looked up): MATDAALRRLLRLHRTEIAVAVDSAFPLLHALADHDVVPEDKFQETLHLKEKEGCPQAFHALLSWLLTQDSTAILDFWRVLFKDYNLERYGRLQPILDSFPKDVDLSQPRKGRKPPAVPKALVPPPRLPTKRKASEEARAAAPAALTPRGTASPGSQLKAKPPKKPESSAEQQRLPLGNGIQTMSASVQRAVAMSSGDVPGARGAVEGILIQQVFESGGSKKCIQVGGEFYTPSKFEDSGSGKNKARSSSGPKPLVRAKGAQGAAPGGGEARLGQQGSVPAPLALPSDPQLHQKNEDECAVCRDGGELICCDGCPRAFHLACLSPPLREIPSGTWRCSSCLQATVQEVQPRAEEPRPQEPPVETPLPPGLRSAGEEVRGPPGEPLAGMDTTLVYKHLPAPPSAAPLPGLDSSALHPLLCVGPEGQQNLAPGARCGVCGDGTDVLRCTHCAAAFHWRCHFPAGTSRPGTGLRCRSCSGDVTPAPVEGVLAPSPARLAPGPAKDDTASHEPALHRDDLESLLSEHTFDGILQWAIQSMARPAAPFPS

| Compound | tested on | assay | test system | conditions | scale | endpoint | value |
| --- | --- | --- | --- | --- | --- | --- | --- |
| Cc1ccc2nc(-c3ccc4nc(-c5ccc(NC(=O)c6ccc7ccccc7c6)cc5)sc4c3)sc2c1S(=O)(=O)O | – | SYBR Green I displacement | DNA substrate | 100 µM | – | DNA binding | 64 ± 7% |
| CC#N.O=S(=O)([O-])C(F)(F)F.O=S(=O)([O-])C(F)(F)F.Oc1ccc(O)c(CN(CCN(Cc2ccccn2)Cc2ccccn2)Cc2ccccn2)c1.[Mn+2] | – | lucigenin competition from IC50 | – | with: xanthine oxidase/hypoxanthine | – | superoxide reaction rate constant | 3.4e+08 M⁻¹ s⁻¹ |
| CSCC[C@H](NC(=O)[C@H](Cc1c[nH]c2ccccc12)NC(=O)CNC(=O)[C@H](Cc1ccc(O)cc1)NC(=O)[C@H](C)NC(=O)[C@H](CCC(=O)O)NC(=O)[C@H](CCC(=O)O)NC(=O)[C@H](CCC(=O)O)NC(=O)[C@H](CCC(=O)O)NC(=O)[C@H](CCC(=O)O)NC(=O)[C@@H](CCC(=O)O)NC(=O)CNC(=O)C(CNCCN)CNCCN)C(=O)N[C@@H](CC(=O)O)C(=O)N[C@@H](Cc1ccccc1)C(N)=O | Gastrin/cholecystokinin type B receptor (CCKBR, Homo sapiens, UniProt P32239) | calcium mobilisation, fura-2 | HEK293 expressing human CCK2R | – | – | Hill coefficient | 0.6 |
| CCSc1nc2c([nH]1)c(=O)n(C)c(=O)n2C | Glucocorticoid receptor (Nr3c1, Rattus norvegicus, UniProt P06536) | reporter gene, antagonist, MMTV-luciferase | T47D/A1-2 | 10 µM, 24 h, with: 5 nM dexamethasone | relative to: maximal activity | remaining activity | 100% |
| Cc1ccc2nc(-c3ccc4nc(-c5ccc(N(C)C(=O)c6ccc7ccccc7c6)cc5)sc4c3)sc2c1S(=O)(=O)O | – | SYBR Green I displacement | DNA substrate | 100 µM | – | DNA binding | 35 ± 23% |
| Cc1cc2c(NC(=O)N[C@@H]3CC(C)(C)Oc4cc(C(F)(F)F)ccc43)cccc2cn1 | Transient receptor potential cation channel subfamily A member 1 (TRPA1, Homo sapiens, UniProt O75762) | cell-based | – | no activity up to value | – | activity | > 100 µM |
| CC[C@H](C)[C@H](NC(=O)[C@H](Cc1c[nH]cn1)NC(=O)[C@H](CCCNC(=N)N)NC(=O)[C@H](CCCNC(=N)N)NC(=O)[C@H](CCCNC(=N)N)NC(C)=O)C(=O)N[C@H](C(=O)N[C@@H](CCCNC(=N)N)C(=O)N[C@@H](CCCCN)C(=O)N[C@@H](CCCNC(=N)N)C(=O)N[C@H](C(=O)N[C@@H](CC(C)C)C(=O)N[C@@H](CCCNC(=N)N)C(=O)N[C@@H](CCCNC(=N)N)C(=O)N[C@@H](CC(C)C)C(=O)N[C@@H](CC(C)C)C(=O)N[C@@H](CCC(N)=O)C(N)=O)[C@@H](C)O)C(C)C | – | – | PC/PS 2:1 vesicles | concentration not given, KCl 100 to 300 mM | – | fold reduction of binding | ~500 |
| CC(C)[C@H](NC(=O)[C@@H]1CCCN1C(=O)[C@H](C)NC(=O)[C@H](CO)NC(=O)[C@H](C)NC(=O)[C@H](CC(N)=O)NC(=O)[C@H](CCC(=O)O)NC(=O)[C@@H](NC(=O)[C@H](CC(=O)O)NC(=O)[C@H](CCCCN)NC(=O)[C@H](C)NC(=O)[C@H](CCC(N)=O)NC(=O)[C@H](Cc1ccccc1)NC(=O)[C@H](C)NC(=O)[C@H](Cc1c[nH]c2ccccc12)NC(=O)[C@H](C)NC(=O)[C@@H](NC(=O)CN)C(C)C)C(C)C)C(=O)O | PCY1 Saponaria vaccaria | substrate, LC/MS | – | pH 8.5, 30 °C | – | Km | 0.45 ± 0.17 µM |
| CCNc1cc2c(cc1C)C1(c3cc(C)c(NCC)cc3O2)c2ccccc2C(=O)N1N=Cc1c[c-]c(-c2ccccn2)cc1.Cc1c(C)c(-c2ccc(-c3ccccc3)cc2)[c-](C)c1C.[Cl-].[Ir+3] | A549 | flow cytometry | – | concentration not given, 24 h | relative to: untreated | MMP-9 protein level | decreased |
| C[C@H](N)C(=O)N[C@@H](CCCNC(=N)N)C(=O)N[C@H](C(=O)N[C@@H](CCCC[N+](C)(C)C)C(=O)N[C@@H](CCC(N)=O)C(=O)N[C@H](C(=O)N[C@@H](C)C(=O)N[C@@H](CCCNC(=N)N)C(=O)N[C@@H](CCCCN)C(=O)N[C@@H](CO)C(=O)O)[C@@H](C)O)[C@@H](C)O | Autoimmune regulator, PHD1 domain (AIRE, Homo sapiens, UniProt O43918, D297A) | tryptophan fluorescence titration | – | concentration not given | – | binding | no binding |
| Cc1cc2c(c(=O)o1)C=C1CCC(C(C)CNCc3ccc(O)cc3)CC1O2 (stereo not drawn) | – | – | rat hippocampal CA1 slices | 10 µM, Mg2+-free, with DNQX | relative to: control | NMDA receptor fEPSP | 134 ± 9.5% |
| Nc1ncnc2c(CN3C[C@H](CSCC[C@H](N)C(=O)O)[C@@H](O)C3)c[nH]c12 | MTA/SAH nucleosidase (Campylobacter jejuni subsp. jejuni, UniProt Z9IB28FKP7) | – | – | – | relative to: Km of SAH over Kd | ratio | 500 fold |

For quick reference, copied from above:
| Compound | tested on | assay | test system | conditions | scale | endpoint | value |
| --- | --- | --- | --- | --- | --- | --- | --- |
| Cc1ccc2nc(-c3ccc4nc(-c5ccc(NC(=O)c6ccc7ccccc7c6)cc5)sc4c3)sc2c1S(=O)(=O)O | – | SYBR Green I displacement | DNA substrate | 100 µM | – | DNA binding | 64 ± 7% |
